Experimental data of several laboratories.
Parts stem from different laboratories: compare values within a part only. Positions count from the first letter of the parent shown.

Block 1 — method: RNA Bind-n-Seq; molecule type: RNA; medium: in vitro; concentration: 365 nM; baseline: no-protein control; direction: higher = stronger binding
Target: RNA binding protein fox-1 homolog 2, RRM domain, GST-SBP tag (RBFOX2, Homo sapiens, UniProt O43251-10, residues 100-194)
Setting: natural RNA segment, single round, ends assumed
Constant ends, left off below: GGGAGUUCUACAGUCCGACGAUC … UGGAAUUCUCGGGUGCCAA
Residues (chain): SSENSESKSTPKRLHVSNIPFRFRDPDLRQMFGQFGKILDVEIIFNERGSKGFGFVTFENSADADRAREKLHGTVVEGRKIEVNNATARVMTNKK
| Sequence | RBNS enrichment (R) |
| --- | --- |
| GCAACGACACCAACUGAUAAAAGCACAAGAGAAGUGGGGAACAUCUUGAGUCCUGUUGGACGUGAUAGUGUUUCUUGAUCUGUAUGCCACAGUGCCUUUAUGGCCAGUUU | 0.837 |
| UGGCUUGUAGGAUUUUUAAGAGAGUGUGUCUACAGACAAGCAUUUUCUCUGUAGAGCAGCCACACGUUGUAUAAACAUAAACUGUAUGUGCAGUUAUUUAAAUUUGUUUC | 1.07 |
| CCAGGACGUGGCCUCUUCCGAUCCUUUUCUCUCAGACACUGGAGGUCUCUUCUGCCAUUGUGCUGGUCCCAUCCCAAGAAUUGUAGGACAGAGACCACACUGGGUCGGCG | 0.665 |
| UCAUGUGUGUUACUAUUAGGUAUAUAUAGGCUAGAUUGUGCCCACUAUCCUGGAAGGUGGCAAGUUUAGAGACGAUAGCACAAUUUUCAUGAACAUAGCACUGGGGCAUG | 1.13 |
| CACUUGUACCAGCUAAGAAUGCUGGAGACUCUGCCACCAUGCUCUGCGUGCCCCUGAACCUCUGUGCAGCCCGGAAGGCUGAUGUACAGGUGUACCUCAAUCCACAUUAC | 0.347 |
| GAUUAGACUUUAUCAGGGAAUCUGUUUAAGAUAUGUUUGGUGACCAAAACGUAUGUGUGAAUGUAGUUAUAAUGCUUUUGAAAAAUUUUCCUUUUUCUAUAUCCCCUUAG | 0.912 |
| GGCUAGAGGAGUGGCAUCUGGAGCUCAGAAACGUGAGAGACUAUUUGUGUACAAAAGGCAGGAAAAAGUAUUUGAUACCACUGUACAUAAGAGUUUUCAGAGAUUUCAUA | 0.799 |
| UUCGUCAGUUUGCAUUUCUUUACUCCCACAAGGCUCUGCGGGGUCUUGGUGUGAGACAAGGCACAUGCACGGGGUGCUCGGUCCCUCUGUGGGCUGUGCGUGGGUUCACC | 0.771 |
| UUUUAAUGACAAUGAAGUGACACUUUGACAUUUCCUACCUUUUGAGGACUUGAUCCUUCUCCAGGAAGAAGGUGCUUUCUGCUUACUGACUUAGGCAAUACACCAAGGGC | 0.32 |
| AAUUCUAAUACCUAUAUUUUCAAGUUAUGUCAAUUAAAUCAUUAUCAGGUUAUUUCCUAAUGUAAGAAUAGCUAAAAUGUUGCAGAGAAAUAAGUGACCCAACAAAAUUU | 0.626 |
| AUACAUGAUCCCUCGGGUUUUGUUUACAAGGAACCUUGACUGACCAAAAGGCAUUAUAACUCUGACUCAAAUACAAGGUACAGAAGAUAAGCAUCUUUGAGGAAACUCCU | 0.28 |
| UACAUAUCUACUGACUGAUGACAAGGGAAUUUCAUUAGGAAGAAGGUAAAGAAACAUCGUUGAGUAGCCUACCUUGAUUUCUGUCAAGUUCAUAACCAGCUUCAUAUUUU | 0.508 |

Block 2 — method: competition protein-binding microarray; molecule type: double-stranded DNA, one strand shown; medium: in vitro; concentration: 2 µM; added: Pho4 competitor, 0.05 µM; direction: higher = stronger binding; constant ends, left off below: … GTCTTGATTCGCTTGACGCTGCTG
Target: Centromere-binding protein 1, full length, His-tagged (CBF1, Saccharomyces cerevisiae, UniProt P17106, residues 1-351)
UniProt P17106, sequence (whole entry, looked up): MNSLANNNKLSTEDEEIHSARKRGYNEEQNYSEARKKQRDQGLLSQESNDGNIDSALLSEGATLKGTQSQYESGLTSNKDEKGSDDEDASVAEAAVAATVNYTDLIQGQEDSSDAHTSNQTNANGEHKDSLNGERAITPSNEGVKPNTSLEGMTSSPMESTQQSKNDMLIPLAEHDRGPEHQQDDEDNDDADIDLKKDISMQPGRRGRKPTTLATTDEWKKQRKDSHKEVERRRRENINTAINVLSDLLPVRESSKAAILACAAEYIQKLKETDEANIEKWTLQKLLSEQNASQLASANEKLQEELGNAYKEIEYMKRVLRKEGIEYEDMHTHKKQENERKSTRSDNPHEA
Setting: whole 60-bp probe, lowest competitor level
| Sequence | fluorescence intensity |
| --- | --- |
| CGTCCTAGTGATTGTCACGGCACTTCCATGAGGAAG | 101 a.u. |
| CTTTCCCGATCTTGGTGGGTGGGTGTAGCACATTTG | 63.9 a.u. |
| TGCGGGTACTTTGAGAGCGTGTCCTAACTTTGGCTT | 59.8 a.u. |
| GGGAGACAGCGCGGCCACGTGACGGGCTTCCTCTTT | 3790 a.u. |
| CCATCTGCAGGACATCACATGCAAGCACTTGAAGCT | 395 a.u. |
| CGATCTGGATATCACCACGCAGATCGACTCTTACAT | 68.1 a.u. |
| AAAAGACCATCCCATCACGTGACTCGTTTTTCCTGC | 22600 a.u. |
| GTAGAGGTTAACGGTTCCGTGATGGAACCCATTTCT | 68.2 a.u. |
| CTTCTGTAAATTTTTCACGTGTCGTGAAGCGCCCCG | 634 a.u. |
| ATTTGAAAAATTGGCAATGTGATATTCGGTTAAGGA | 99.1 a.u. |
| AGGAGTTTCTCCGGCCATGTGCGGCTGGTTCTACTT | 61.7 a.u. |
| CTTCTGTAAATTTTTCACGTGCCGTGAAGCGCCCCG | 937 a.u. |
| CCAACACCGTCTTCACCCGTGCAAATGCCTTCTGCG | 67.4 a.u. |
| AAATTACTAAGTTGACGAGTGGGTGACGCCGTATGA | 67.7 a.u. |
| CGGGGTTAAGTTTGGTAAGTGGGTGGCTTGCAGCAG | 70.7 a.u. |
| CGTCCTAGTGATTGGTGGGTGGGTGCCATGAGGAAG | 81.3 a.u. |
| TTTTTCTTTTGATATACCGTGATGGCTCTGATAGGT | 108 a.u. |

Block 3 — method: universal PBM; molecule type: double-stranded DNA, one strand shown; medium: in vitro; concentration: 600 nM; direction: higher = stronger binding
Target: Sal-like protein 4, full length isoform A (SALL4, Homo sapiens, UniProt Q9UJQ4, residues 1-1053)
UniProt Q9UJQ4, sequence (whole entry, looked up): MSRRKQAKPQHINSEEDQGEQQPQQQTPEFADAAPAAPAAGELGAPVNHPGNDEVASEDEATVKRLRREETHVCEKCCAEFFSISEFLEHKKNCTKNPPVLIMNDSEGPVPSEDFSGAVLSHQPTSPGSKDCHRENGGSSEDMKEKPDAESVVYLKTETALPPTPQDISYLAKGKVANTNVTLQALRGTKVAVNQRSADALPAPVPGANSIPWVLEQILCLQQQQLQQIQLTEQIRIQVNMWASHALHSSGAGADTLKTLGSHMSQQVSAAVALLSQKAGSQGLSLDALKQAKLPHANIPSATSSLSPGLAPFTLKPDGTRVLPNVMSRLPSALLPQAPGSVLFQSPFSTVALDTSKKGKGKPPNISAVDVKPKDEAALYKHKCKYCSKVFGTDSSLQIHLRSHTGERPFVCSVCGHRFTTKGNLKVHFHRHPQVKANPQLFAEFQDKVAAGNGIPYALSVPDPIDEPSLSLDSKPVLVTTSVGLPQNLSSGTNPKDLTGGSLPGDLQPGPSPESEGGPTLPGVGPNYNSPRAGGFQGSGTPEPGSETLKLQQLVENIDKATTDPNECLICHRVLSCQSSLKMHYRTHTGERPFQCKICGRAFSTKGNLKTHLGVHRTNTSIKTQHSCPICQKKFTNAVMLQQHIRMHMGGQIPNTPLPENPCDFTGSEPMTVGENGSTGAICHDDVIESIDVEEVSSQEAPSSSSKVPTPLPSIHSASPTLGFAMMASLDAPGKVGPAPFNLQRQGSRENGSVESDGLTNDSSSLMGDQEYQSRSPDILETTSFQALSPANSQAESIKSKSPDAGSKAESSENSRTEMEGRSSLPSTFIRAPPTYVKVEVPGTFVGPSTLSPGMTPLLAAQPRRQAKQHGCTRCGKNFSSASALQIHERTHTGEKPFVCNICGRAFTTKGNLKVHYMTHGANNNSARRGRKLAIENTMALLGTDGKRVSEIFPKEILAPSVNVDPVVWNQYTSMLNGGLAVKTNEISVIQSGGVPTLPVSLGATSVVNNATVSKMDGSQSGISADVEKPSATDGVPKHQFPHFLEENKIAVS
Setting: 8-mer, flanks averaged, mean of replicates
| Sequence | E-score |
| --- | --- |
| ACCTGAGT | -0.0803 |
| GAGCATAC | 0.0532 |
| ACATTGGC | 0.0114 |
| ACCGTTAG | 0.0147 |
| CGAATGCA | 0.115 |
| ACGCGACC | -0.271 |
| CGCCGAAG | -0.317 |
| ACTACCAT | 0.139 |
| CCGCTAGC | -0.34 |
| CGCTTTGA | -0.0219 |
| CGCTGATC | -0.154 |
| CCGACATA | 0.047 |
| ACCTGGGC | -0.2 |
| CGAGACTA | -0.0066 |
| AGCGGCCC | -0.367 |
| TCTGCAAA | 0.148 |
| CGAGGTTA | -0.00802 |
| AGTTAACT | -0.116 |
| GTACTTAA | 0.148 |
| ACCGTCCT | 0.0321 |
| AAGAGTTA | 0.192 |
| GCCGGCCA | -0.283 |
| AGAAATAT | 0.402 |
| AATGGGTC | -0.0985 |
| GGATTCGA | -0.154 |

Block 4 — target: CCNA2, cyclin fold, Cln2 fusion (human); method: yeast growth competition, sequencing; medium: yeast; setting: strong parent motif; baseline: not given; direction: higher = stronger binding
Parent: RBL1 docking peptide (human); GSAKRRLFGEDPP; partner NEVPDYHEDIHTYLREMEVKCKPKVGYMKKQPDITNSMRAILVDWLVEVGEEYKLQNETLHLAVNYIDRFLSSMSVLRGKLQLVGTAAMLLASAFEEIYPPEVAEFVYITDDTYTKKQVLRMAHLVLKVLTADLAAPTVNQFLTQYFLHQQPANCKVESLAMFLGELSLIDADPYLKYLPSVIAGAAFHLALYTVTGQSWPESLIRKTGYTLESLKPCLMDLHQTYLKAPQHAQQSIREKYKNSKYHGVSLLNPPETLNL
| Variant | normalised enrichment score |
| --- | --- |
| S2Q | 5.33 |
| P12D | 5.38 |
| A3P | 1.47 |
| A3I | 3.66 |
| L7G | 0.575 |
| G1R | 7.07 |
| R6I | 2.83 |
| A3W | 2.98 |
| F8D | 0.752 |
| F8V | 0.843 |
| R5K F8L | 0.571 |
| F8L | 1.37 |
| R6Y | 0.745 |
| S2I | 4.3 |
| K4A | 5.11 |
| P13N | 6.37 |
| P13L | 6.64 |
| F8H | 0.461 |
| R5L | 1.35 |
| R6V | 3.09 |
| P13I | 5.89 |
| P13S | 5.58 |
| G9W | 6.34 |
| R6N | 4.73 |
| K4T | 1.86 |

Block 5 — method: RNA Bind-n-Seq; molecule type: RNA; medium: in vitro; concentration: 200 nM; setting: whole 134-nt RNA, ends assumed; added: 150 mM KCl; baseline: input library; direction: higher = stronger binding
Target: Ras GTPase-activating protein-binding protein 1, full length (G3BP1, Homo sapiens, UniProt Q13283)
UniProt Q13283, sequence (whole entry, looked up): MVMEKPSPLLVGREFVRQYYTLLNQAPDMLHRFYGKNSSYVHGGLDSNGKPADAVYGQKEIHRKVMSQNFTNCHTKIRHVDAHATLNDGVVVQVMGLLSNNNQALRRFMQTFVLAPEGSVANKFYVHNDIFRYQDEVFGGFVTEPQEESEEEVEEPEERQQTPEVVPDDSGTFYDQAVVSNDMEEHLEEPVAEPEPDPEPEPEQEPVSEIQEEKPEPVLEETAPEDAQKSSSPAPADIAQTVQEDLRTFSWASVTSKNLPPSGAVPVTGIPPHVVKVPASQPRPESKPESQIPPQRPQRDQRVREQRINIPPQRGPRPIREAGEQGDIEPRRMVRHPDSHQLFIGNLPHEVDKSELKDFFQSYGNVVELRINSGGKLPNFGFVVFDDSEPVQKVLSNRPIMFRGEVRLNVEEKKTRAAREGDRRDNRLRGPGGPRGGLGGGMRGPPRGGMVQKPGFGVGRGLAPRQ
Constant ends, left off below: GGGAGUUCUACAGUCCGACGAUC … UGGAAUUCUCGGGUGUCAAGG
| Sequence | log2 enrichment |
| --- | --- |
| CAAGUCCUGUGCUACACAUCGUAUGUACCGAAUCGGGAAAAAGGGUGGGUUUGGGAAAGUAUUAUGUUACGCCGUUCGGAUCUGCACUUC | 0.69 |
| UGUGCUACACAUCGUAUGUACCGAAUCGUGUGUGUGUGUGUGUGUGUGUGUGUGUGUGUGUGUAAAGUAUUAUGUUACGCCGUUCGGAUC | 0.802 |
| GUCCUGUGCUACACAUCGUAUGUACCGAAUCGGAAAAAGGGAAAAAGGGGAAAAAGGGGAAAGUAUUAUGUUACGCCGUUCGGAUCUGCA | -0.334 |
| ACCAUGCAGGUGGGGAUCUUUGGGAAGUGGGGCAAGGGGGGGAUAGGGAGGGGGGUAACACUUUGGGAACAGGUGGUCCCAGGUCGUUUC | 0.79 |
| GCAGGAAGUAAAAACAAAUGGAAAUGCUUCGGAUAGUGGCAGGGGUGGGGGUUGCUAAGGCAAGGGUGGGAUGGGAGUGGGUAAAGAGUU | 0.748 |
| AAGUCCUGUGCUACACAUCGUAUGUACCGAAUCGGUUUUUGGAAAGGUUUUUUUGGAAAGUAUUAUGUUACGCCGUUCGGAUCUGCACUU | -1.56 |
| UUCCUCAAGUCCUGUGCUACACAUCGUAUGUACCGAAUCGGUGGAGGUGGAAAGUAUUAUGUUACGCCGUUCGGAUCUGCACUUCCAGCA | -0.706 |
| GUCCUGUGCUACACAUCGUAUGUACCGAAUCGGGUUUUUUUGGGAAAAAAAGGGUGGGAAAGUAUUAUGUUACGCCGUUCGGAUCUGCAC | -0.195 |
| UGUGCUACACAUCGUAUGUACCGAAUCGGGGCCCCCCCGGGGCCCCCCCGGGGCCCCCCCGGAAAGUAUUAUGUUACGCCGUUCGGAUCU | -0.333 |
| UAACUUUAUAGGAGGAUCUGAUGGAUAUGGCAGUGGACGUGGAUUUGGGGAUGGCUAUAAUGGGUAUGGAGGAGGACCUGGAGGUGGCAA | 0.294 |
| UCCUGUGCUACACAUCGUAUGUACCGAAUCGGGGAAAGGGGUUUGGGGAAAAAAAGGGGAAAGUAUUAUGUUACGCCGUUCGGAUCUGCA | 0.627 |
| GUCCUGUGCUACACAUCGUAUGUACCGAAUCGGGGAGGGGAAAAAGGGGAAAAAGGGGAAAGUAUUAUGUUACGCCGUUCGGAUCUGCAC | 0.324 |
| UUUAGUGACUUUGGAUGAAGUAACUGAAGAGGAUGAAGACUCUCUGGCGGAUUUUAACAACCUUAAAGAAGAGCUUAAUUUUGUUACUGU | -1.16 |
| GCAGGAAAAAAAAACAAAUGGAAAUGCUUCGGAUAGUGGCAGGGGUGGGGGUUGCUAAGGAAAGGGUGGGAUGGGAGUGGGUAAAGAGUU | 1.17 |
